Experimental data gathered from unrelated publications.
Compare with care: the assays were run in different laboratories. ± gives the spread as reported. Ends that are not written are not given here.
FGFR3 isoform IIIc: FGFR3 isoform IIIc (unknown, UniProt Q61851)
Chain of UniProt Q61851 (whole entry, looked up): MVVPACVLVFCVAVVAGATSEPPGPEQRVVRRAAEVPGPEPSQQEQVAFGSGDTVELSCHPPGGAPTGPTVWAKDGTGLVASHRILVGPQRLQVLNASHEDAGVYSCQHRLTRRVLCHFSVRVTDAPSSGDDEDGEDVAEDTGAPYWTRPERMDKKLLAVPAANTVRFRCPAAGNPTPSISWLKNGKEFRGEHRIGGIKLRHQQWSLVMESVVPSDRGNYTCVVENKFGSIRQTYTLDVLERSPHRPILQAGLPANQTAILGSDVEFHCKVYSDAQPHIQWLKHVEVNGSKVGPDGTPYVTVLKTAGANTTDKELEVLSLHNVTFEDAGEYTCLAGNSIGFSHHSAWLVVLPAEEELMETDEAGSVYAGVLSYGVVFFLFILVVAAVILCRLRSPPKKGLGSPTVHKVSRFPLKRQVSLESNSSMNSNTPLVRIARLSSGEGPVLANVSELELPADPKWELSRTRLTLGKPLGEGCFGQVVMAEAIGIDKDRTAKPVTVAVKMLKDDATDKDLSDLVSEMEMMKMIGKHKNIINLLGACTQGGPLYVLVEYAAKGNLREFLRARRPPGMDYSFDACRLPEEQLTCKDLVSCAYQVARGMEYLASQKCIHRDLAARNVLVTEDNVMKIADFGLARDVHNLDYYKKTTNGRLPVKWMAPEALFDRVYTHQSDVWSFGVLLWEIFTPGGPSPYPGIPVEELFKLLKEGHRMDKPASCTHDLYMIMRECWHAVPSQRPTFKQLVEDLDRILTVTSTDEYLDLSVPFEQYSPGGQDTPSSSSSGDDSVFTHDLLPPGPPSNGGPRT
B1: UGT1A9 (Homo sapiens, UniProt O60656); chain GKLLVVPMDGSHWFTMRSVVEKLILRGHEVVVVMPEVSWQLGRSLNCTVKTYSTSYTLEDLDREFKAFAHAQWKAQVRSIYSLLMGSYNDIFDLFFSNCRSLFKDKKLVEYLKESSFDAVFLDPFDNCGLIVAKYFSLPSVVFARGILCHYLEEGAQCPAPLSYVPRILLGFSDAMTFKERVRNHIMHLEEHLLCHRFFKNALEIASEILQTPVTEYDLYSHTSIWLLRTDFVLDYPKPVMPNMIFIGGINCHQGKPLPMEFEAYINASGEHGIVVFSLGSMVSEIPEKKAMAIADALGKIPQTVLWRYTGTRPSNLANNTILVKWLPQNDLLGHPMTRAFITHAGSHGVYESICNGVPMVMMPLFGDQMDNAKRMETKGAGVTLNVLEMTSEDLENALKAVINDKSYKENIMRLSSLHKDRPVEPLDLAVFWVEFVMRHKGAPHLRPAAHDLTWYQYHSLDVIGFLLAVVLTVAFITFKCCAYGYRKCLGKKGRVKKAHKSKTH
B2: enzyme (Bacillus pumilus, UniProt A8FFI9); chain EARSIAWSVDEFFKNREGTFVIQEVKEKSPWVYNKKRAKERFAPQSTFKVANALIGLQTGAVRDEYDIKYWDGVKREIDNWNRDHTLGSGMRDSVVWYYQAMARDIGEERMNHWVKAIHYGNKDISGGIDQFWLSSTLRISPIEQVRFLKQLYEETLPFDLKNMRTVKRMMVQEEEKHATLYGKTGSGSDIGWYVGFIKHEHKTYILATNIKGTGIEAKDITYRILKKYHLMEASV
B3: TIMP3 mature (Homo sapiens, UniProt P35625); N-glycosylated; sequence looked up; chain CTCSPSHPQDAFCNSDIVIRAKVVGKKLVKEGPFGTLVYTIKQMKMYRGFTKMPHVQYIHTEASESLCGLKLEVNKYQYLLTGRVYDGKMYTGLCNFVERWDQLTLSQRKGLNYRYHLGCNCKIKSCYYLPCFVTSKNECLWTDMLSNFGYPGYQSKHYACIRQKGGYCSWYRGWAPPDKSIINATDP
Chain of UniProt P08253 (whole entry, unmodified, looked up): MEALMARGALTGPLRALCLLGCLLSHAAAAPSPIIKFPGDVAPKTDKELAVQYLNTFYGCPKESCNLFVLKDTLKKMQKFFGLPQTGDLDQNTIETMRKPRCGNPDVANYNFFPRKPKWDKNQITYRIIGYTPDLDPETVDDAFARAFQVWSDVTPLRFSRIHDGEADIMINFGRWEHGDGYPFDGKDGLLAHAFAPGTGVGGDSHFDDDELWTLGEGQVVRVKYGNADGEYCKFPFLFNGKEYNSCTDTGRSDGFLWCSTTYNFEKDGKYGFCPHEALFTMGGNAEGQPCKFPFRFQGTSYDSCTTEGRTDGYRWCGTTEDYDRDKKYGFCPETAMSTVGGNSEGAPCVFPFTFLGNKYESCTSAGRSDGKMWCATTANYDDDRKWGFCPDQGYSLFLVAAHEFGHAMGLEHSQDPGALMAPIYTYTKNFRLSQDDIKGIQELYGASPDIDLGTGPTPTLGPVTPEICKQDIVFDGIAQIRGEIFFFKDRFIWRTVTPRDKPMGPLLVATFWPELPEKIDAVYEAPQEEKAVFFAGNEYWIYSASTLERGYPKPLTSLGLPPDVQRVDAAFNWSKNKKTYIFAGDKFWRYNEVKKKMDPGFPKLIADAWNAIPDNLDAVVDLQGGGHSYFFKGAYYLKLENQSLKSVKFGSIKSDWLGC
Chain of UniProt Q8PTU1 (whole entry, looked up): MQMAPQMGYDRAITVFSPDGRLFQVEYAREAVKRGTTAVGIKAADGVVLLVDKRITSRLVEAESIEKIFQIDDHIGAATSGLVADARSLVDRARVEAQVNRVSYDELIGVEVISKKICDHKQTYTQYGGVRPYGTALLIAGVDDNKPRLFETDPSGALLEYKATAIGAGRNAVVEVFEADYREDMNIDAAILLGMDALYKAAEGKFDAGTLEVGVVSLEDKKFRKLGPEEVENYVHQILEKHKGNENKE
Chain of UniProt Q8PY58 (whole entry, looked up): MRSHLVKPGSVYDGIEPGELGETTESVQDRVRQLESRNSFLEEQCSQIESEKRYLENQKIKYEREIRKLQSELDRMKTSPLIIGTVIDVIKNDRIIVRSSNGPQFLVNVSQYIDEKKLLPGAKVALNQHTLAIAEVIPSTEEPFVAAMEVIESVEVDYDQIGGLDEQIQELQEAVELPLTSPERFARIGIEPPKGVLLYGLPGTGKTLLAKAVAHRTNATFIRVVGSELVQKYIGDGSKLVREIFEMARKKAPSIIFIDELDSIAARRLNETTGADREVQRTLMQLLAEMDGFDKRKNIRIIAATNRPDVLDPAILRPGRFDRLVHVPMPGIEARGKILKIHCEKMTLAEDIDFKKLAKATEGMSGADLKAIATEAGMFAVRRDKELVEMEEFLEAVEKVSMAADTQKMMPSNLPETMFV
Chain of UniProt P05230 (whole entry, looked up): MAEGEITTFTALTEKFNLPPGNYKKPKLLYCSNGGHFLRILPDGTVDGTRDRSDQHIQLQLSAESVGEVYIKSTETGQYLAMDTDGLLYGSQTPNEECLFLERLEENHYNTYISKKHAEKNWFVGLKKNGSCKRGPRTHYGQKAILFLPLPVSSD
Chain of UniProt P04228 (whole entry, looked up): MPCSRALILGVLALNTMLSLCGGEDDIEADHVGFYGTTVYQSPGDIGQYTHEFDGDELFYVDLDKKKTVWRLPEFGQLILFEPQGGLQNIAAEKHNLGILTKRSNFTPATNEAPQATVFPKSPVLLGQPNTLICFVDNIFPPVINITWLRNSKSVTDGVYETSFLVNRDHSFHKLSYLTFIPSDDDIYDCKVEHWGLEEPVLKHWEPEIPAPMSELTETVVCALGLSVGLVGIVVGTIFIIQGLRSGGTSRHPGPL
Chain of UniProt P01921 (whole entry, looked up): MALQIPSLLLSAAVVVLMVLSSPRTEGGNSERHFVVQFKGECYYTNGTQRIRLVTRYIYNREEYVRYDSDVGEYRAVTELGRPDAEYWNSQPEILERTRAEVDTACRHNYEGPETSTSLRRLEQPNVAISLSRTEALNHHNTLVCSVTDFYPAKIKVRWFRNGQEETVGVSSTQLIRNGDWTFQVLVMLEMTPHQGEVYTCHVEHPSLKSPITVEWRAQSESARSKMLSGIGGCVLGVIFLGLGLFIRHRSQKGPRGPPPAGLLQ
Chain of UniProt P11362 (whole entry, looked up): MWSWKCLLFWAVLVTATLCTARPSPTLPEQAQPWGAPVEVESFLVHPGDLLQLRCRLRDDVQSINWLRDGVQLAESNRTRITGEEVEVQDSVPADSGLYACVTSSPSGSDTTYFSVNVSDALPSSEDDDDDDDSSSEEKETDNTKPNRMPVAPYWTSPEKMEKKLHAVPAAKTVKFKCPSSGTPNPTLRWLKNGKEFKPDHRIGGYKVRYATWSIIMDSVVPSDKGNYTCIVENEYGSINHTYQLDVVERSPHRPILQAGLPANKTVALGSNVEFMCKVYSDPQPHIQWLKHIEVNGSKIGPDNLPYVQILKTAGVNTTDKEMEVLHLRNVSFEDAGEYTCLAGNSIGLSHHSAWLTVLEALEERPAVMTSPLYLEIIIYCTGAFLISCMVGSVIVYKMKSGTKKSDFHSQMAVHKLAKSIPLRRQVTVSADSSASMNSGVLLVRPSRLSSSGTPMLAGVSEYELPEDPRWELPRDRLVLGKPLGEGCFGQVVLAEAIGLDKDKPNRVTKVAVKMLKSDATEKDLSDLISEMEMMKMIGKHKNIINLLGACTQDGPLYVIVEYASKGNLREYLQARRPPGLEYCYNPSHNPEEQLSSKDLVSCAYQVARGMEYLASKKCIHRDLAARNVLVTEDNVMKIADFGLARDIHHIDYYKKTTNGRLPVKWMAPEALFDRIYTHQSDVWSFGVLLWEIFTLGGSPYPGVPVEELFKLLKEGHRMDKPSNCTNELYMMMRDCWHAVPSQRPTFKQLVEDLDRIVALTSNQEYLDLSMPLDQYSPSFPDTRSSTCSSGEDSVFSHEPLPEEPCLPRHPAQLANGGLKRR
Chain of UniProt P30872 (whole entry, unmodified, looked up): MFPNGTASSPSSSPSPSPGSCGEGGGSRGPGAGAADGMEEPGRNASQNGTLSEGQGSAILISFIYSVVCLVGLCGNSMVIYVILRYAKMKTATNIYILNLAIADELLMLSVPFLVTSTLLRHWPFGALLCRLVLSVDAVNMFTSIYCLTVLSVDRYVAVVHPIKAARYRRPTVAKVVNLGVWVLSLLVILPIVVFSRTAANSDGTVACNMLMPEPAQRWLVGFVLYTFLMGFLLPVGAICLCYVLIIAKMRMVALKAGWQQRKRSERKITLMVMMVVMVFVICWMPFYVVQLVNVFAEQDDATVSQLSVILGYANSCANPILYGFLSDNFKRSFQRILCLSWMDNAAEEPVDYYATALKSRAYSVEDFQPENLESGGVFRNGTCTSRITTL
Chain of UniProt P55075 (whole entry, looked up): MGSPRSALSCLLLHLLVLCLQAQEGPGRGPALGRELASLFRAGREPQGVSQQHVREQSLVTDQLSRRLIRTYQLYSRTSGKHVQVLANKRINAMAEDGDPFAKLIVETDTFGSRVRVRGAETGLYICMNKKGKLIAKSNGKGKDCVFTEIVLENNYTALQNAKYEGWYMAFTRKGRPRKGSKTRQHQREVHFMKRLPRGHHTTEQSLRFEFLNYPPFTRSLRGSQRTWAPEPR
Chain of UniProt P31266 (whole entry, unmodified, looked up): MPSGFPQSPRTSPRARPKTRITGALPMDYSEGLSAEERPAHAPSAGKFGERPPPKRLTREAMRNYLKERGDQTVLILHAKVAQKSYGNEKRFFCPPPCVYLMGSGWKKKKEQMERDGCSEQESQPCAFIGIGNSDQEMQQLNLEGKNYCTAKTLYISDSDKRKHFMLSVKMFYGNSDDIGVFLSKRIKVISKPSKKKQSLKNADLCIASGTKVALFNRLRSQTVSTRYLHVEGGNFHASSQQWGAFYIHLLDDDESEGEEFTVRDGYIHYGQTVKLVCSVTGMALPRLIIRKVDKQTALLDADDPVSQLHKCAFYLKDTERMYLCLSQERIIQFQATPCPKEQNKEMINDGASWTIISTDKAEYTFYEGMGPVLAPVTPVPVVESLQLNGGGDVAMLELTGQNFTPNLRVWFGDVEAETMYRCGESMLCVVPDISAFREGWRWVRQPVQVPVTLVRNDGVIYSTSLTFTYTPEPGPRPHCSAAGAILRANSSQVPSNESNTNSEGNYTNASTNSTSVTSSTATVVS
Chain of UniProt P0A6A8 (whole entry, looked up): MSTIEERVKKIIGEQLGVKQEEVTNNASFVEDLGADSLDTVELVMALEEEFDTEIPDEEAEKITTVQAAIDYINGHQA

Substance = B1 (UGT1A9); target or system = COc1ccc(-c2oc3cc(OC)ccc3c(=O)c2O)cc1; assay = steady-state kinetics; setting = pH 7.4, 37 °C; endpoint = Vmax/Km; value = 46000 µL/min/mg
Substance = Pfa1 G-patch (Chaetomium thermophilum); target or system = Prp43 C303T/C323V/C441A/C508A/C543S/K170C/E602C (Chaetomium thermophilum, UniProt G0RY84); assay = RNA unwinding, activator; endpoint = unwinding rate constant; value = 3.9 min⁻¹
Substance = PAN-A (Methanosarcina mazei, UniProt Q8PY58); target or system = 20S proteasome core particle (Methanosarcina mazei, UniProt Q8PTU1); assay = BODIPY-casein degradation, activator; setting = 100 nM CP, with: ATP; scale = reference: MmCP alone, higher = more degradation; endpoint = casein degradation; value = 2.5 fold
Substance = fabF K65A/R127A/K128A (Escherichia coli); target or system = acpP C12-acylated 1-78, C12 acyl on 4'-phosphopantetheine (Escherichia coli, UniProt P0A6A8); assay = holo-AcpP formation, HPLC; setting = 10 µM, with: malonyl-CoA; endpoint = condensation rate; value = 0.4 min⁻¹
Substance = F8 A2 domain (human); target or system = F8 A1 and A3C1C2 dimer, factor VIIIa S1787D; assay = FXa generation activity loss; setting = 1.5 nM, 23 °C; scale = higher = faster decay; endpoint = decay rate; value = 1.12 min⁻¹
Substance = MMP2 fragment R252A/R368A (Homo sapiens); target or system = COL1A1/COL1A2 denatured, gelatin (Homo sapiens); assay = DQ-gelatin fluorescence; setting = 10 nM, 25 °C; scale = higher = faster hydrolysis; endpoint = hydrolysis rate; value = 0.105 RFU/s
Substance = KCNTATCATQRLANFLVHSSNNFGPILPPTNVGSNTY (Pramlintide; not fully specified (C-terminus, bridges); cysteine pairing not given here; sequence looked up); assay = measured: Headache; system = peptide, obese or overweight humans; setting = concentration not given, ITT population; endpoint = adverse event incidence; value = 7.1%
Substance = FGF1 (Homo sapiens, UniProt P05230); target or system = FGFR3 isoform IIIc; assay = cell proliferation, MTT; system = BaF3-FGFR3c; setting = 20 nM, 48 h, with: 2-O desulfated heparin 4.9 µg/mL; scale = reference: FGF 1 with heparin, higher = more proliferation; endpoint = cell proliferation; value = 82%
Substance = B2 (enzyme); target or system = C[C@@H](O)[C@H]1C(=O)N2C(C(=O)O)=C(S[C@@H]3CN[C@H](C(=O)N(C)C)C3)[C@H](C)[C@H]12; assay = steady-state kinetics; setting = pH 7; endpoint = kcat; value = 0.014 ± 0.001 s⁻¹
Substance = B3 (TIMP3 mature); target or system = MMP2 110-465 (Homo sapiens, UniProt P08253); assay = inhibitor, steady-state kinetics; setting = 37 °C, apparent; endpoint = Ki; value = 0.9 nM
Substance = FGF2 fragment C78S/C96S, C-terminal KCK, vcMMAE on Cys (Homo sapiens); target or system = FGFR1 extracellular domain, Fc fusion 22-376 (UniProt P11362); assay = cell viability, Alamar Blue; system = BJ; setting = 96 h; endpoint = EC50; value = 329 nM
Substance = SIIVFEKL; target or system = OT-I CD8+ T cells; system = peptide; setting = concentration not given, primed 5 d, OVA257 100 ng/mL restimulation, with: no TGF-beta1; endpoint = IL-2+ cells; value = 79.6%
Substance = KNG1 two-chain HKa (Homo sapiens); target or system = PLAUR (Homo sapiens, UniProt Q03405); assay = cell migration, inhibitor, Boyden chamber; system = DU145; setting = 300 nM, 6 h, with: bFGF; scale = reference: untreated control, higher = stronger inhibition; endpoint = inhibition of migration; value = 76%
Substance = HNTNGATAACSHE (HA(126-138) V131A); target or system = H2-Ab1/H2-Aa (Mus musculus, UniProt P01921+P04228); assay = class II-peptide complex dissociation, SEC-HPLC fluorescence; system = peptide, soluble I-A FITC-peptide complex; setting = pH 5.3, 37 °C, with: unlabeled Eα 5 µM; endpoint = half-life; value = 54 min
Substance = FGF8 (Homo sapiens, UniProt P55075); target or system = FGFR3 isoform IIIc; assay = cell proliferation, MTT; system = BaF3-FGFR3c; setting = 20 nM, 48 h, with: completely desulfated heparin 4.9 µg/mL; scale = reference: FGF 1 with heparin, higher = more proliferation; endpoint = cell proliferation; value = 66%
Substance = SIYNFEKL; target or system = OT-I CD8+ T cells; system = peptide; setting = concentration not given, primed 5 d, OVA257 100 ng/mL restimulation, with: 20 ng/mL TGF-beta1 from day 2; endpoint = IFN-gamma+ cells; value = 41.1%
Substance = lanreotide, D-Trp, cyclic disulfide; target or system = SSTR1 L114A (Homo sapiens, UniProt P30872); assay = cAMP inhibition, FRET Epac sensor; system = HEK 293T; scale = reference: wild-type SSTR1, higher = greater decrease; endpoint = cAMP inhibition decrease; value = 80%
Substance = MENVKKAAATTTWMVPTAQ (L3MBTL3 52-70 T59A (Homo sapiens, UniProt Q96JM7-2); sequence looked up); target or system = Rbpj 53-474 (Mus musculus, UniProt P31266); assay = ITC; system = peptide; setting = pH 6.5, 25 °C, NaCl 150 mM; endpoint = ΔH; value = -9.9 kcal/mol

Some of these lines once more:
Substance = F8 A2 domain (human); target or system = F8 A1 and A3C1C2 dimer, factor VIIIa S1787D; assay = FXa generation activity loss; setting = 1.5 nM, 23 °C; scale = higher = faster decay; endpoint = decay rate; value = 1.12 min⁻¹
